Experimental data of several laboratories.
Protocols differ between the studies behind these lines.
Organism: Staphylococcus aureus

`CCc1nc(N)nc(N)c1C#C[C@H](C)c1cc(-c2cc(C)nc(C)c2)ccc1Cl` gave an MIC of 0.156 µg/mL (broth microdilution; ATCC 43300; 18 h, 37 °C).
The MIC of `CC(C)CCCCCCCCC/C=C/C(=O)N[C@@H](CC(=O)O)C(=O)N[C@H]1CNC(=O)[C@@H]2CCCN2C(=O)[C@H](C(C)C)NC(=O)[C@@H]([C@@H](C)O)NC(=O)CNC(=O)[C@H](CC(=O)O)NC(=O)CNC(=O)[C@H](CC(=O)O)NC(=O)CNC(=O)[C@H]2CCCCN2C1=O` is reported as 2 µg/mL (MRSA USA300; together with: Ca2+ 10 mM).
The MIC of `CCc1[nH]c(C(=O)N[C@@H]2CCN(c3nnc(C(C)(C)O)s3)C[C@@H]2OC)nc1Cl` is reported as 0.5 µg/mL (ATCC 29213).
`CC(CCCOC(=O)CCC[N+](C)(C)C)C1CCC2C3CCC4CC(OC(=O)CCC[N+](C)(C)C)CCC4(C)C3CCC12C` (stereo not drawn) has an MIC of less than 0.5 µg/mL (ATCC 29213; 16 h, 37 °C).
`CC1OCC2OC(OC3C(N)CC(N)C(O)C3OC3OC(CO)C(OC4OC(CN)C(O)C(O)C4N)C3O)C(N)C(O)C2O1` (stereo not drawn) gave an MIC of 64 to 128 µg/mL (broth microdilution; MRSA isolate AG 039).
The MIC of `CC(C)C[C@H](NC(=O)[C@H](CC(N)=O)NC(=O)[C@H](CCCNC(=N)N)NC(=O)[C@@H](CC(C)C)NC(=O)[C@H](Cc1ccc(-c2ccccc2)cc1)NC(=O)[C@H](CC(=O)O)NC(=O)[C@H](CCCCN)NC(=O)[C@@H](CC(C)C)NC(=O)[C@H](CCCNC(=N)N)NC(=O)[C@H](CCC(N)=O)NC(=O)[C@@H](NC(=O)[C@@H](CC(C)C)NC(=O)[C@H](CCCNC(=N)N)NC(=O)[C@H](CCCCN)NC(=O)[C@H](Cc1ccc(-c2ccccc2)cc1)NC(=O)CN)C(C)C)C(=O)N[C@H](C(N)=O)C(C)C` is reported as 4 µM (USA300 LAC; overnight, chymotrypsin pretreated).
`CC(C)=CCc1cc2c(cc1O)OC[C@H]1c3ccc(O)c(CC=C(C)C)c3O[C@@H]21` gave an MIC of 2 to 4 µg/mL.
`Oc1c(Br)cc(Br)c2nc3cc(C(F)(F)F)ccc3nc12` has an MIC of 0.05 µM (broth microdilution; MRSA 44).
`C=CCNCc1cc(N(C)C)c2c(c1O)C(=O)C1=C(O)[C@]3(O)C(=O)C(C(N)=O)=C(O)[C@@H](N(C)C)[C@@H]3C[C@@H]1C2` has an MIC of 1 µg/mL (microbial growth, broth dilution).
The MIC of `COc1ccc(-c2csc(N/N=C(\C)c3ccc4c(c3)sc3nc(=O)c(C#N)cn34)n2)cc1` is reported as less than 40 µg/mL (broth microdilution).
With `Nn1c(CCCc2ccccc2)nc2ccccc2c1=O` the MIC was greater than 100 µM (broth microdilution; RN6390B).
The MIC of `CN(C)c1cc(CNC(=O)C(C)(C)C)c(O)c2c1C[C@H]1C[C@H]3[C@H](N(C)C)C(O)=C(C(N)=O)C(=O)[C@@]3(O)C(O)=C1C2=O` is reported as 2 µg/mL (RN4250, Tet K efflux).
`CCN(CC)CCn1nc(C23CC4CC(CC(C4)C2)C3)n(C)c1=S` has an MIC of 8 µg/mL (two-fold dilution; IFO 3060; 24 h, 36 °C).
`CN(C)c1cc(CNC2CCCC2)c(O)c2c1C[C@H]1C[C@H]3[C@H](N(C)C)C(O)=C(C(N)=O)C(=O)[C@@]3(O)C(O)=C1C2=O` gave an MIC of 1 µg/mL (RN4250, Tet K efflux).
With `CNC(CC(C)C)C(=O)NC1C(=O)NC(CC(N)=O)C(=O)NC2C(=O)NC3C(=O)NC(C(=O)NC(C(=O)O)c4cc(O)cc(O)c4-c4cc3ccc4O)C(O)c3ccc(c(Cl)c3)Oc3cc2cc(c3OC2OC(CO)C(O)C(O)C2OC2CC(C)(NC(=O)CCCCCC[N+](C)(C)Cc3ccccc3)C(O)C(C)O2)Oc2ccc(cc2Cl)C1O` (stereo not drawn) the MIC was 512 µg/mL (agar dilution; MRSA clinical isolate MRSA3).

A few entries again:
The MIC of `CC(C)CCCCCCCCC/C=C/C(=O)N[C@@H](CC(=O)O)C(=O)N[C@H]1CNC(=O)[C@@H]2CCCN2C(=O)[C@H](C(C)C)NC(=O)[C@@H]([C@@H](C)O)NC(=O)CNC(=O)[C@H](CC(=O)O)NC(=O)CNC(=O)[C@H](CC(=O)O)NC(=O)CNC(=O)[C@H]2CCCCN2C1=O` is reported as 2 µg/mL (MRSA USA300; together with: Ca2+ 10 mM).
